Experimental data of several laboratories.
Compare with care: the assays were run in different laboratories. Several values in a cell are separate wells, animals, samples, runs or records. ± gives the spread as reported.
ADRA2C: Alpha-2C adrenergic receptor (ADRA2C, Homo sapiens, UniProt P18825)
UCHL1: Ubiquitin carboxyl-terminal hydrolase isozyme L1 (UCHL1, Homo sapiens, UniProt P09936)
TOP2A: DNA topoisomerase 2-alpha (TOP2A, Homo sapiens, UniProt P11388)
T1: G-quadruplex DNA (Homo sapiens); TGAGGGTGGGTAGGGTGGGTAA
T2: G-quadruplex DNA, intermolecular, 6-nt strands; TTAGGG

Cc1cc(Oc2ncccc2CN2CCN(c3ccc(C(F)(F)F)cc3[N+](=O)[O-])CC2)ccc1-c1c(C)c(=O)[nH]c(=O)n1C has a selectivity ratio of 4 (ADRA2C; binding, radioligand binding; with: [3H]rauwolscine; reference: Ki alpha2A over Ki alpha2C).
CCC1CC1(NS(=O)(=O)c1cccc(Cl)c1O)c1ccc(Cl)cc1 (stereo not drawn) has a remaining activity of 114% (malate dehydrogenase; enzyme activity, inhibitor; 200 µM, pH 7.0, 1% DMSO, aggregation counter-screen).
Cn1c(=O)c2[nH]cnc2n(C)c1=O has an inhibition of 1% (Voltage-dependent P/Q-type calcium channel subunit alpha-1A (Homo sapiens, UniProt O00555); ion current, antagonist; HEK293; 30 µM).
CC(=O)N(C)Cc1ccc(C(=O)CCl)cc1 has a labelling of 41.9% (UCHL1; covalent, intact protein LC-MS; 12.5 µM).
CCN1CCC[C@H]1CNC(=O)c1c(O)c(Cl)cc(Cl)c1OC — result for “log2 fold change”: 0.288 (G-protein coupled receptor 182 (GPR182, Homo sapiens, UniProt O15218); β-arrestin recruitment, TANGO luminescence, refers to: GPR182; concentration not given; reference: basal luminescence).
The labelling of O=C(CCl)c1c(-c2ccc(F)cc2)[nH]c2ccccc12 is reported as 9.38% (UCHL1; covalent, intact protein LC-MS; 12.5 µM).
C=CC(=O)N1CCC(COCC(=O)N2CCN(c3nc(-c4cnc(N)nc4C(F)F)nc(N4CCOC[C@@H]4C)n3)CC2)CC1 has a remaining binding of 29% (Phosphatidylinositol 3-kinase catalytic subunit type 3 (PIK3C3, Homo sapiens, UniProt Q8NEB9); KINOMEscan; 1 µM).
For O=c1ccc2c(OCCCCO)c3ccoc3cc2o1, channel block read “inactive” (Potassium voltage-gated channel subfamily A member 3 (Kcna3, Mus musculus, UniProt P16390); Kv1.3 current, blocker; mouse L929 cells; concentration not given).
With O=S(=O)(NC(C1CC1)C1(CO)CCCO1)c1cccc(Cl)c1O (stereo not drawn) the remaining activity was 97% (malate dehydrogenase; enzyme activity, inhibitor; 200 µM, pH 7.0, 1% DMSO, aggregation counter-screen).
O=c1nc(SCc2cc(F)cc(C(F)(F)F)c2)nc(SCc2csc3ccc(Cl)cc23)[nH]1 has a linear DNA of 16.6% (TOP2A; DNA cleavage; 125 µM, replicate 2).
For CC[C@@H]1[C@H](F)C(=O)N[C@@H]1COc1nccc2cc(C(N)=O)c(OC)cc12, the inhibition was -10.4% (Serine/threonine-protein kinase LATS2 (LATS2, Homo sapiens, UniProt Q9NRM7); ATP-site probe binding, ActivX profiling; THP-1 cell lysate; 0.01 mM, Lys2 site).
Nc1nc2c(ncn2[C@@H]2O[C@@H]3COP(=O)(O)O[C@H]3[C@H]2O)c(=O)[nH]1: “relative binding EC50 ratio” 1 (cGMP antibody; acetylated EIA; reference: EC50 cGMP over EC50 analogue).
Under “LDL lipid peroxidation”, CC(C)OCCn1c(=S)[nH]c(=O)c2[nH]ccc21 is recorded as 96% and 126% and 99% and 103% (Myeloperoxidase (MPO, Homo sapiens, UniProt P05164); inhibitor, cholesteryl ester hydroperoxide; 0.0046 µM; reference: control).
The decatenated DNA of Cc1nc(CSc2nc(SCc3ccc(C(C)C)cc3)nc(=O)[nH]2)cs1 is reported as 60.2% (TOP2A; decatenation; 15.6 µM, replicate 1).
Under “highest concentration tested”, Cc1cn(C2CCN(Cc3cccc(Oc4ccc(Cl)c(C(F)(F)F)c4)c3)CC2)c(=O)[nH]c1=O is recorded as over 40 µM (Thymidylate kinase (DTYMK, Homo sapiens, UniProt P23919); enzyme activity, inhibitor; no inhibition observed).
For CN(C)CCCNc1nc(-c2cccc(-c3nc(NCCCN(C)C)c4ccccc4n3)n2)nc2ccccc12, binding read “binds” (T1, G-quadruplex DNA (Homo sapiens); 1H NMR titration; pH 7.4, 298 K, KCl 35 mM).
Nc1nc2c(ncn2[C@@H]2O[C@@H]3COP(=O)(O)O[C@H]4[C@@H](O)[C@H](n5cnc6c(=O)[nH]c(N)nc65)O[C@@H]4COP(=O)(O)O[C@H]3[C@H]2O)c(=O)[nH]1 gave a -TΔS of -8.3 kcal/mol (Cell cycle histidine kinase CckA, CA domain (Caulobacter vibrioides, UniProt Q9X688); binding, ITC; 12 °C, with: ADP 5 mM).
With Cc1cc(Oc2ncccc2CN2CCN(c3ccc([N+](=O)[O-])cc3C(F)(F)F)CC2)ccc1-c1c(C)c(=O)[nH]c(=O)n1C the selectivity ratio was 5 (ADRA2C; binding, radioligand binding; with: [3H]rauwolscine; reference: Ki alpha2A over Ki alpha2C).
Nc1nc2c(ncn2[C@@H]2O[C@H](COP(=O)(O)O)[C@@H](O)[C@H]2O)c(=O)[nH]1 gave a reaction rate of 3.46 s⁻¹ and 3.79 s⁻¹ and 1.95 s⁻¹ (GUK1 (Homo sapiens, UniProt Q16774, T83A); enzyme activity, NADH-coupled; 15.62 µM).
The labelling of C#CC(=O)N1CCC(N2CCN(Cc3cccc(C)c3)C2=O)C1 (stereo not drawn) is reported as 20.7% (UCHL1; covalent, intact protein LC-MS; 12.5 µM).
The binding enthalpy of CC(=O)N[C@H](C(=O)N[C@@H](CC(=O)O)C(=O)N1CCC[C@H]1C(=O)N1CCC[C@H]1C(=O)N[C@@H](CC(C)C)C(=O)N[C@@H](Cc1c[nH]cn1)C(=O)N[C@@H](CO)C(=O)N[C@H](C(=O)N[C@@H](C)C(N)=O)[C@@H](C)OP(=O)(O)O)C(C)C is reported as -14.5 ± 0.11 kcal/mol (Serine/threonine-protein kinase PLK1 (PLK1, Homo sapiens, UniProt P53350); polo-box domain binding, isothermal titration calorimetry; concentration not given, 25 °C).
The current density of O=C(O)C1=CCNCC1 is reported as 7.73 pA/pF and 18.6 pA/pF and 7.16 pA/pF and 5.86 pA/pF and 26.9 pA/pF and 15.4 pA/pF (BEST1 (Homo sapiens, UniProt O76090); whole-cell patch clamp; HEK293 transiently expressing channel; concentration not given, membrane potential 20 mV).
For N[C@@H](CCC(=O)O)C(=O)O, the median current was 4.5 µA (glc-2 (Caenorhabditis elegans, UniProt Q17328, R340A/R342A/R351A/R352A/R353A/S341A/T283S); two-electrode voltage clamp; Xenopus laevis oocytes).
For Cc1cc(-c2ccnc3[nH]cc(F)c23)cc(F)c1[C@@]1(O)[C@H](C)CN(C(=O)CN)C[C@@H]1C, the inhibition was -6.2% (Serine/threonine-protein kinase 38-like (STK38L, Homo sapiens, UniProt Q9Y2H1); ATP probe binding, KiNativ, refers to: Lys2 site; HEK293T cell lysate; 0.1 µM).
The apparent Km of CC[C@H]1OC(=O)[C@H](C)[C@@H](O[C@H]2C[C@@](C)(OC)[C@@H](O)[C@H](C)O2)[C@H](C)[C@@H](O[C@@H]2O[C@H](C)C[C@H](N(C)C)[C@H]2O)[C@](C)(O)C[C@@H](C)CN(C)[C@H](C)[C@@H](O)[C@]1(C)O is reported as 4.23 ± 0.24 mM (uncharacterized protein (Saccharopolyspora erythraea, UniProt A4F7P9); concentration not given, pH 7.6, 20 °C, with: p-nitrophenyl-β-D-glucopyranoside).
COc1cc(Nc2ncc3c(n2)-c2ccc(Cl)cc2C(c2c(F)cccc2OC)=NC3)ccc1C(=O)O gave a remaining activity of 9% (NTRK3; kinase activity; 1 µM).
Cc1cc2nc3c(=O)[nH]c(=O)nc-3n(C[C@H](O)[C@H](O)[C@H](O)COP(=O)(O)OP(=O)(O)OC[C@H]3O[C@@H](n4cnc5c(N)ncnc54)[C@H](O)[C@@H]3O)c2cc1C — result for “enzyme bound with compound”: 49.8% and 38% and 36% and 40.1% and 47% and 58% and 46% (Acyl-coenzyme A oxidase acox-1.1 (acox-1.1, Caenorhabditis elegans, UniProt O62140); UV spectroscopy).
The labelling of O=C(CCl)N1CCN(C2CCCN(C3CCOCC3)C2=O)CC1 (stereo not drawn) is reported as 5.73% (UCHL1; covalent, intact protein LC-MS; 12.5 µM).
O=c1nc(SCc2cc(F)cc(C(F)(F)F)c2)nc(SCc2ccc3nc(Cl)ccc3c2)[nH]1 has a linear DNA of 14.9% (TOP2A; DNA cleavage; 15.6 µM, with: etoposide 50 µM).
For Cc1cc(Nc2cc(N3CCN(C)CC3)nc(Sc3ccc(NC(=O)C4CC4)cc3)n2)[nH]n1, the remaining activity was 103% (Serine/threonine-protein kinase haspin (HASPIN, Homo sapiens, UniProt Q8TF76); kinase activity, KinaseProfiler; 0.03 µM, species human; reference: control).
C[C@H](CCC(C)(C)O)[C@H]1CC[C@H]2[C@@H]3CC=C4C[C@@](C)(O)CC[C@]4(C)[C@H]3CC[C@]12C gave a current response of 154 ± 2.4% (Glutamate NMDA receptor; GRIN1/GRIN2B (GRIN1/GRIN2B, Homo sapiens, UniProt Q05586+Q13224, E657A); positive allosteric modulator, two-electrode voltage clamp; Xenopus oocytes expressing GluN2B-E657A; 10 µM, 0.02% cremophor, with: 100 µM glutamate and glycine; reference: without compound).
The labelling of Cc1ccc(NC(=O)C(C#N)=Cc2ccccc2OC(F)F)cc1 is reported as 33.4% (UCHL1; covalent, intact protein LC-MS; 12.5 µM).
For CCCCC[C@H](O)/C=C/[C@H]1CCC(=O)[C@@H]1C/C=C\CCCC(=O)O, the span was 113 ± 3.38% (Prostaglandin E2 receptor EP1 subtype (PTGER1, Homo sapiens, UniProt P34995, S42A); IP1 accumulation, agonist; AD293; mutant S42A; reference: wild type).
C=CC1=C(C)C2=Cc3c(C=C)c(C)c4[n]3[Fe]([Cl])[n]3c(c(C)c(CCC(=O)O)c3=CC3=NC(=C4)C(C)=C3CCC(=O)O)=CC1=N2 gave a Kd of 437 nM (T2, G-quadruplex DNA, intermolecular, 6-nt strands; UV-vis titration, Hill fit; KCl 100 mM, apparent, with: hemin 2 µM).
C(=N\Nc1nc(Nc2ccccc2)nc(N2CCOCC2)n1)/c1c[nH]c2ccccc12 gave an inhibition of 4.8% (Trypanosoma cruzi; reporter translation, Renilla luciferase mRNA translation; cell-free extract; 40 µM; reference: DMSO).
The remaining activity of CC(C)OCc1ccccc1NS(=O)(=O)c1cccc(Cl)c1O is reported as 83% (malate dehydrogenase; enzyme activity, inhibitor; 200 µM, pH 7.0, 1% DMSO, aggregation counter-screen).
The inhibition of CCc1sc(C(=O)NC2CCN(C)CC2)cc1Br is reported as -1.3% (Trypanosoma cruzi; reporter translation, Renilla luciferase mRNA translation; cell-free extract; 40 µM; reference: DMSO).
N#CC(=Cc1c(F)c(F)c(F)c(F)c1F)C(=O)NC1CCCCC1 has a labelling of 35.3% (UCHL1; covalent, intact protein LC-MS; 12.5 µM).
For Nc1ncnc2c1ncn2[C@@H]1O[C@H](COP(=O)(O)CP(=O)(O)OP(=O)(O)O)[C@@H](O)[C@H]1O, the specific binding was 2560 CCPM and 6270 CCPM and 1820 CCPM (P2X purinoceptor 1 (P2RX1, Homo sapiens, UniProt P51575, S286A); saturation binding; HEK293; 25 nM).
For CCNC(=O)/C=C/c1cccc(Br)c1, “remaining transport activity” read 0.124 (Sodium-dependent neutral amino acid transporter B(0)AT1 (SLC6A19, Homo sapiens, UniProt Q695T7); inhibitor, L-[14C]leucine uptake; CHO-BC cells; 10 µM, 6 min, unit not given, with: GPNA 3 mM, JPH203 3 µM; reference: uninhibited cells).
Nc1ccc(C(=O)O)cc1 has a current density of 5.33 pA/pF and 3.24 pA/pF and 5.85 pA/pF and 2.09 pA/pF and 7.31 pA/pF and 0.94 pA/pF and 1.55 pA/pF and 3.37 pA/pF (BEST1, with wild-type BEST1 (Homo sapiens, UniProt O76090, R218H); ion current, whole-cell patch clamp; HEK293 co-expressing mutant and wild-type; concentration not given, voltage 20 mV).
Under “melting temperature shift”, O=c1cc(-c2ccc([N+](=O)[O-])cc2)[nH]c2c(-c3ccc(Cl)cc3)c(Cc3ccccc3)nn12 is recorded as 4.7 °C (Glyoxylate reductase/hydroxypyruvate reductase (Homo sapiens, UniProt Q9UBQ7); thermal stability, binder, thermal proteome profiling; RD, cell lysate; 50 µM, 0.5% DMSO; reference: DMSO vehicle).
